{"data": "Published values pooled from the literature", "note": "Each line is one published result; not all experiments were run side by side. “And” joins repeats or separate records; there may be more than shown. ± gives the spread as reported."}
{"Structure (SMILES)": "O=C(O)CCC(CP(=O)(O)O)C(=O)O (stereo not drawn)", "test system": "rat plasma", "setting": "0.3 µg/mL, freeze-thaw cycle 2 at -80 °C", "measurement": "measured concentration", "result": "0.318 ± 0.017 µg/mL"}
{"Structure (SMILES)": "COc1ncccc1-c1cnn2ccc(N3CCN(C(=O)OC(C)C)CC3)nc12", "test system": "rat, STZ model, plasma", "setting": "oral, 30 mg/kg, 240 min", "measurement": "drug concentration", "result": "16 µM"}
{"Structure (SMILES)": "CCCCCCCCCCCCCCCC(=O)N[C@@H](CCC(=O)NCCCC[C@H](NC(=O)[C@H](CC(=O)O)NC(=O)[C@H](CO)NC(=O)[C@@H](NC(=O)[C@H](Cc1ccccc1)NC(=O)[C@@H](NC(=O)CNC(=O)[C@H](CCC(N)=O)NC(=O)[C@H](CO)NC(=O)[C@@H](N)Cc1c[nH]cn1)[C@@H](C)O)[C@@H](C)O)C(=O)N[C@@H](CO)C(=O)N[C@@H](CCC(=O)O)C(=O)N[C@@H](Cc1ccc(O)cc1)C(=O)N[C@@H](CC(C)C)C(=O)N[C@@H](CC(=O)O)C(=O)N[C@@H](CO)C(=O)N[C@@H](CCC(=O)O)C(=O)N[C@@H](CCCNC(=N)N)C(=O)N[C@@H](C)C(=O)N[C@@H](CCCNC(=N)N)C(=O)N[C@@H](CC(=O)O)C(=O)N[C@@H](Cc1ccccc1)C(=O)N[C@H](C(=O)N[C@@H](C)C(=O)N[C@@H](Cc1c[nH]c2ccccc12)C(=O)N[C@@H](CC(C)C)C(=O)N[C@@H](CCC(=O)O)C(=O)N[C@@H](C)C(=O)NCC(=O)NCC(=O)O)C(C)C)C(=O)O", "test": "measured: decreased appetite", "test system": "human, CrCl ≥45 to <60 mL/min", "setting": "subcutaneous, 100 µg single dose", "measurement": "treatment-related adverse events", "result": "0%"}
{"Structure (SMILES)": "C1=Cc2nc1cc1ccc([n-]1)c(-c1ccccc1)c1nc(cc3ccc([n-]3)c2-c2ccccc2)C=C1.CC(=O)[O-].[Mn+3]", "test": "LC-MS/MS", "test system": "Sprague-Dawley rat, plasma", "setting": "oral gavage, dose not given, 120 min", "measurement": "plasma concentration", "result": "78 ng/mL and 51 ng/mL"}
{"Structure (SMILES)": "COc1cc2c(Oc3ccc4[nH]c(C)cc4c3F)ccnc2cc1OCC1(N)CC1", "test": "measured: grade 1 or 2 mouth ulcer", "test system": "paediatric high-risk refractory sarcoma", "setting": "8 mg", "measurement": "incidence of adverse event", "result": "6.7%"}
{"Structure (SMILES)": "Cn1ncc(-c2nc(N[C@H]3CC[C@H](N)CC3)ncc2Cl)c1CC1CC1", "test": "phase I dose escalation", "test system": "human patients", "setting": "dose not given, grade 3-4 TEAE", "how to read": "relative to: patients", "measurement": "febrile neutropenia incidence", "result": "10%"}
{"Structure (SMILES)": "Cn1cc(-c2nc(N[C@@H]3CCCC[C@@H]3N)c(F)c3c2C(=O)NC3)cn1", "test": "measured: gingival bleeding", "test system": "patients with relapsed or refractory AML", "setting": "oral, 120 mg once daily", "measurement": "hemorrhagic adverse events", "result": "25%"}
{"Structure (SMILES)": "CN1CCN(S(=O)(=O)c2cc([N+](=O)[O-])ccc2N(CCOS(C)(=O)=O)CCOS(C)(=O)=O)CC1", "test system": "NSG mice, brain", "setting": "intraperitoneal, 5 mg/kg, 0.25 h", "measurement": "concentration", "result": "not detected"}
{"Structure (SMILES)": "COc1ccc(-c2[nH]c3c(OC)c(OC)ccc3c2C(=O)c2cc(OC)c(OC)c(OC)c2)cc1OP(=O)([O-])[O-].[Na+].[Na+]", "test": "outcome: not toxic", "test system": "mouse, BALB/c, RENCA-luc tumour", "setting": "intraperitoneal, 50, 100 mg/kg", "measurement": "tolerability", "result": "not toxic"}
{"Structure (SMILES)": "CN[C@H]1CC[C@@H](c2ccc(Cl)c(Cl)c2)c2ccccc21", "test system": "CD-1 mouse, male, plasma", "setting": "intraperitoneal, 0.3 mg/kg", "measurement": "AUC(0-inf)", "result": "173 ng·h/mL"}
{"Structure (SMILES)": "C[C@]1(CO)Cc2ncn(-c3ccc(C#N)c(Cl)c3)c2C(=O)O1", "test system": "healthy humans", "setting": "concentration not given, multiple dose part total", "measurement": "drug-related Dizziness incidence", "result": "4.4%"}
{"Structure (SMILES)": "Nc1nc2cc(-c3ccc4ncc(C(=O)N5CCOCC5)n4c3)ccc2o1", "test": "all-cause decreased appetite, all grades", "test system": "patients with advanced solid tumours", "setting": "dose not given", "measurement": "patients with adverse events", "result": "34%"}
{"Structure (SMILES)": "CC(C)C[C@H](NC(=O)[C@H](CCCCN)NC(=O)OCC1c2ccccc2-c2ccccc21)C(=O)N[C@H](C(=O)N[C@@H](Cc1ccccc1)C(=O)N[C@@H](Cc1ccccc1)C(=O)N[C@@H](CCCCN)C(=O)NCC(=O)N[C@@H](Cc1ccccc1)C(=O)N[C@@H](C)C(=O)N[C@@H](Cc1c[nH]c2ccccc12)C(=O)N[C@@H](CC(N)=O)C(=O)N[C@H](C(=O)N[C@H]1CSSC[C@@H](C(=O)N[C@@H](Cc2c[nH]cn2)C(=O)N[C@@H](CCCNC(=N)N)C(=O)N[C@@H](CCCNC(=N)N)C(=O)N[C@@H](C)C(=O)N[C@@H](CC(N)=O)C(N)=O)NC(=O)[C@H](C(C)C)NC(=O)[C@H](CCCNC(=N)N)NC(=O)[C@H](C(C)C)NC(=O)CNC(=O)[C@H](CC(N)=O)NC(=O)[C@H](CCCNC(=N)N)NC(=O)[C@H](Cc2ccc(O)cc2)NC(=O)[C@H](C(C)C)NC1=O)C(C)C)C(C)C", "test": "HPLC", "test system": "mouse mammary gland homogenate", "setting": "2560 µM, 20.00 h, 37 °C, 50 mg/mL tissue", "measurement": "remaining peptide", "result": "53.9% and 56.8% and 52%"}
{"Structure (SMILES)": "CC(C)(O)c1cc(Nc2cc(Oc3cn(C4CC4)nc3C3CCOCC3)ccn2)ccn1", "test": "measured: Cough", "test system": "Japanese patients with advanced cancer", "setting": "oral, dose not given, any grade", "measurement": "treatment-emergent adverse events", "result": "0%"}
{"Structure (SMILES)": "CC(C)CC(=O)OC[C@H]1O[C@@](C#N)(c2ccc3c(N)ncnn23)[C@H](O)[C@@H]1O", "test system": "dog plasma", "setting": "90 µM", "measurement": "fraction unbound", "result": 0.254}
{"Structure (SMILES)": "O=C(Nc1ccccc1)C1CCN(C(=O)Oc2cccnc2)CC1", "test": "adverse event reporting", "test system": "healthy women", "setting": "oral, 20 mg, 7 days", "measurement": "subjects with sleep disorder", "result": "7.1%"}
{"Structure (SMILES)": "CCc1ccc(CC/C=C/c2ccc3c(c2)C(=O)CC3)cc1", "test system": "Sprague-Dawley rat, male", "setting": "oral, 30 mg/kg/day, 14 days", "measurement": "ALP serum activity", "result": "217 U/L"}
{"Structure (SMILES)": "O=S(=O)([O-])C(F)(F)C(F)(F)C(F)(F)C(F)(F)C(F)(F)C(F)(F)C(F)(F)C(F)(F)F.[K+]", "test system": "male C57BL/6J mice, EtOH-fed, liver", "setting": "dose not given", "how to read": "relative to: efavirenz", "measurement": "NEFA level", "result": "no effect"}
{"Structure (SMILES)": "COc1ccc2nc3cc(Cl)ccc3c(Nc3cc(CN4CCCC4)c(O)c(CN4CCCC4)c3)c2n1", "test system": "mouse, blood", "setting": "oral, 57 mg/kg", "measurement": "urea level", "result": "2.65 µmol/L"}
{"Structure (SMILES)": "NCCCC[C@@H]1NC(=O)[C@@H](Cc2c[nH]c3ccccc23)NC(=O)[C@H](c2ccccc2)NC(=O)[C@@H]2C[C@@H](OC(=O)NCCN)CN2C(=O)[C@H](Cc2ccccc2)NC(=O)[C@H](Cc2ccc(OCc3ccccc3)cc2)NC1=O", "test system": "healthy volunteers, female", "setting": "600 µg twice daily, 1.5 h, post hoc", "measurement": "placebo-corrected QTcF change", "result": "11.7 ms"}
{"Structure (SMILES)": "C[C@@H](NC(=O)N1C(=O)[C@H](Cc2ccnc(N)c2)[C@H]1C(=O)O)C1CCCCC1", "test system": "healthy adult Chinese volunteers", "setting": "continuous intravenous infusion, 1.5 mg/kg/h, 5-day infusion, CTCAE 5.0 grading", "measurement": "incidence of urine ketone body positive", "result": "0%"}
{"Structure (SMILES)": "O=S(=O)(Nc1ccccc1)c1ccc(NC(=S)Nc2ccccc2)cc1", "test": "measured: CREA", "test system": "female mouse, blood", "setting": "oral, 20 mg/kg daily, 14 days", "measurement": "blood chemistry level", "result": "0.22 mg/dL"}
{"Structure (SMILES)": "NC(=O)[C@H]1CCN(c2ncnc(N)c2F)C[C@@H]1N1CCC[C@@H](Nc2cc(Cl)cc(C(F)(F)F)c2)C1=O", "test system": "B-cell malignancy patients", "setting": "oral, 246 mg twice daily, dose", "measurement": "grade ≥3 anaemia", "result": "0%"}
{"Structure (SMILES)": "CC(C)n1c(C2CCNCC2)nc2c([N+](=O)[O-])c(Br)c(Br)cc21", "test system": "patients with AML", "setting": "125 mg, septic shock", "measurement": "AE leading to discontinuation", "result": "2%"}
{"Structure (SMILES)": "CC(C)[C@@H]1CC[C@@H](C)C[C@@H]1O", "test": "acute oral toxicity OECD", "test system": "Swiss albino mice, serum", "setting": "oral, 1000 mg/kg", "measurement": "blood urea nitrogen", "result": "29.2 ± 4.43 mg/dL"}
{"Structure (SMILES)": "N=C(N)NCCC[C@@H](NC(=O)[C@@H](N)Cc1ccccc1)C(=O)N[C@@H](Cc1ccccc1)C(=O)N[C@@H](CCCCN)C(N)=O", "test": "LC-MS", "test system": "human, urine", "setting": "subcutaneous, 25 mg, 5.833 h, median", "measurement": "fraction of dose excreted unchanged", "result": "33.5%"}
{"Structure (SMILES)": "COc1cccc(Oc2ccccc2NC(=O)CNC(=O)c2cccc3ccccc23)c1", "test system": "esterase-deficient SCID mice, male", "setting": "oral, 40 mg/kg/day, 14 days, toxicity study", "measurement": "blood glucose", "result": "269 mg/dL and 200 mg/dL and 172 mg/dL"}
{"Structure (SMILES)": "CN(C)CCCN1c2ccccc2Sc2ccc(Cl)cc21", "test system": "human liver microsomes 0.5 mg/mL", "setting": "5 µM, 24 h", "measurement": "fu,mic", "result": 0.139}
{"Structure (SMILES)": "C=CCNc1c(O)cc2c(O)c1C[C@@H](C)C[C@H](OC)[C@H](O)[C@@H](C)/C=C(\\C)[C@H](OC(N)=O)[C@@H](OC)/C=C\\C=C(/C)C(=O)N2", "test system": "unresectable or metastatic STS, GIST, other", "setting": "intravenous, 400 mg/m^2", "measurement": "patients with back pain TEAE", "result": "22%"}
{"Structure (SMILES)": "Cc1ccccc1C(=O)NN=Cc1ccc(O)c(Br)c1", "test system": "normal C3H/HeN mouse, plasma", "setting": "intravenous, 1.6 mg/kg", "measurement": "C0", "result": "125 ng/mL"}
{"Structure (SMILES)": "O=C(Nc1ccc2c(c1)B(O)OC2)c1cccc(OCc2ccccc2)c1", "test": "PAMPA", "test system": "pre-coated trilayer membrane", "setting": "200 µM, 5 h, pH 7.4, donor plate, PBS", "measurement": "donor concentration", "result": "166 ± 25.1 µM"}
{"Structure (SMILES)": "O=C1Nc2cc3[nH]nc(-c4ccncc4)c3cc2CN1Cc1ccccc1", "test": "CTCAE v4.03", "test system": "human, relapsed or refractory advanced solid tumours", "setting": "intravenous, 3.6 mg/kg", "measurement": "patients with vitreous floaters", "result": "67%"}
{"Structure (SMILES)": "CO[C@H]1C[C@@H]2CC[C@@H](C)[C@@](O)(O2)C(=O)C(=O)N2CCCC[C@H]2C(=O)O[C@H]([C@H](C)C[C@@H]2CC[C@@H](OC(=O)NCCOCCOCCOCCOCCOCCOCCOCCOCCC(=O)N3CCc4cc(Cn5nc(-c6ccc7oc(N)nc7c6)c6c(N)ncnc65)ccc4C3)[C@H](OC)C2)C[C@@H](O)[C@H](C)/C=C(\\C)[C@@H](O)[C@@H](OC)C(=O)[C@H](C)C[C@H](C)/C=C/C=C/C=C/1C", "test": "phase 1 dose escalation, measured: mucositis", "test system": "advanced solid tumour patients", "setting": "intravenous, 16 mg weekly, any grade", "measurement": "dose-reducing adverse events", "result": "25%"}
{"Structure (SMILES)": "O=Cc1cn(Cc2cccc(Cl)c2)c2ccccc12", "test system": "male F344 rat, liver", "setting": "oral, 150 mg/kg/day, 2 days, scale unremarkable to marked", "how to read": "direction not given", "measurement": "liver toxicity severity score", "result": 0}
{"Structure (SMILES)": "CC1(C)[C@H](C(=O)OCc2cccc(Oc3ccccc3)c2)[C@@H]1C=C(Cl)Cl", "test": "measured: CYP2C9", "test system": "human, age 5 years, recombinant human CYP2C9", "setting": "0.1 µM", "measurement": "enzyme contribution to clearance", "result": "2.23%"}
{"Structure (SMILES)": "O=C(O)CCCOc1ccc(F)cc1-c1cc(-c2ccccc2C(F)(F)F)n(-c2ccccc2)n1", "test system": "Crl:CD(SD) rat, male", "setting": "intravenous, 25 µg/kg, 14 days post-dose", "measurement": "albumin fraction of serum protein", "result": "49 ± 1.6%"}
